{"data": "Results of several laboratories", "note": "Each numbered part is a random draw from the data of one study; scales do not carry over between parts."}
{"data": "Sample 1", "target": "Histone acetyltransferase KAT6A, winged helix 1, GST fusion (KAT6A, Homo sapiens, UniProt Q92794, residues 1-85)", "method": "protein binding microarray", "form": "double-stranded DNA, one strand shown", "sample": "in vitro", "concentration": "not given", "notes": "8-mer, flanks averaged, mean of 2 arrays, mostly near background", "relative to": "not given", "reading": "higher = stronger binding", "Construct (chain)": "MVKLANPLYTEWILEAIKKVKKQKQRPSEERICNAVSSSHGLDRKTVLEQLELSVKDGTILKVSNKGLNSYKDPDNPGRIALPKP"}
{"Sequence": "ACCGACCG", "E-score": 0.252}
{"Sequence": "AATCGCAG", "E-score": -0.121}
{"Sequence": "CGGACCTC", "E-score": 0.166}
{"Sequence": "GCAGCTCA", "E-score": -0.213}
{"Sequence": "GCTTTAAA", "E-score": -0.144}
{"Sequence": "ATAAAAGC", "E-score": 0.0234}
{"Sequence": "AAGGTTGT", "E-score": -0.117}
{"Sequence": "CTTGGAAC", "E-score": -0.146}
{"Sequence": "CGCTTCAG", "E-score": 0.0115}
{"data": "Sample 2", "target": "Hepatocyte nuclear factor 3-beta, forkhead domain (FOXA2, Homo sapiens, UniProt Q9Y261, residues 142-269)", "method": "protein-binding microarray", "form": "double-stranded DNA, one strand shown", "sample": "in vitro", "concentration": "not given", "notes": "k-mer, scored over probes, only values ≥0.25", "reading": "higher = stronger binding", "Residues (chain)": "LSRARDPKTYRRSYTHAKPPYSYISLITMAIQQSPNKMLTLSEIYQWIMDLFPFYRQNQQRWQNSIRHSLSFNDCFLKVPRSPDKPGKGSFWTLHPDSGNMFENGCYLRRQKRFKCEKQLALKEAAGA"}
{"Sequence": "ATTCATCA", "E-score": 0.259}
{"Sequence": "AACACAGC", "E-score": 0.269}
{"Sequence": "ATAATGTA", "E-score": 0.328}
{"Sequence": "ACTTAGAT", "E-score": 0.317}
{"Sequence": "AATTAATG", "E-score": 0.262}
{"Sequence": "CATAATCA", "E-score": 0.338}
{"Sequence": "GGAAATTA", "E-score": 0.253}
{"Sequence": "CAACATTA", "E-score": 0.344}
{"data": "Sample 3", "target": "Sal-like protein 4, full length isoform B (SALL4, Homo sapiens, UniProt Q9UJQ4-2, residues 1-616)", "method": "universal PBM", "form": "double-stranded DNA, one strand shown", "sample": "in vitro", "concentration": "not given", "notes": "8-mer, flanks averaged, mean of replicates", "reading": "higher = stronger binding", "Residues (chain)": "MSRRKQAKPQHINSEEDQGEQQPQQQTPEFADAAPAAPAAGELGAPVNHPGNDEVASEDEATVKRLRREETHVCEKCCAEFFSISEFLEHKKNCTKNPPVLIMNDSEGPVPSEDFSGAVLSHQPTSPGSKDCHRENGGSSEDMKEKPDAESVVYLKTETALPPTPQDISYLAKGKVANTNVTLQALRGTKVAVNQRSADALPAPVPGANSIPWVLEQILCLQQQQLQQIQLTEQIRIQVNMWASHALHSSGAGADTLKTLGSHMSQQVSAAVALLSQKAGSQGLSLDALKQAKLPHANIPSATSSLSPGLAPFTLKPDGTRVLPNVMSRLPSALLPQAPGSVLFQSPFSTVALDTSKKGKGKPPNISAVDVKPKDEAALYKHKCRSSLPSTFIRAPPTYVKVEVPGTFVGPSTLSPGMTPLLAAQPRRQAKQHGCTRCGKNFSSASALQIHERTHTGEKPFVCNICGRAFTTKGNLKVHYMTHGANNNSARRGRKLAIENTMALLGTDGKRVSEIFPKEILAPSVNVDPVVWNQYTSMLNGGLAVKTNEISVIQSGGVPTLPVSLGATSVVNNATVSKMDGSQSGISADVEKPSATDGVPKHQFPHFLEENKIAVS"}
{"Sequence": "CTGTACGA", "E-score": 0.0653}
{"Sequence": "CGTAGGTA", "E-score": -0.0449}
{"Sequence": "AACAAAAA", "E-score": 0.302}
{"Sequence": "TCAACTCA", "E-score": 0.0149}
{"data": "Other studies, line by line"}
{"Substance": "PhoQ, residues 284 288 289 292 302 303 SLSLLA", "target": "PhoP, residues 12 14 15 18 19 NYFTV (Escherichia coli, UniProt P23836)", "assay": "Sort-seq, measured: YFP reporter", "system": "E. coli", "conditions": "PhoQ-PhoP variant library, together with: 10 µM Mg2+", "scale": "relative to: high Mg2+ state, higher = stronger signaling", "measurement": "fold induction", "result": 18.8}
{"note": "A few entries again (sample 2):"}
{"Sequence": "CAACATTA", "E-score": 0.344}
